{"data": "Assay results collected from several papers", "organism": "Enterococcus faecalis", "note": "Compare with care: the assays were run in different laboratories."}
{"SMILES": "COc1cc(/C=N/N2C(=O)c3ccccc3NC2c2cc(OC)c(O)c([N+](=O)[O-])c2)cc([N+](=O)[O-])c1O (centres unmarked)", "test": "broth microdilution", "test system": "VRE 368, vancomycin-resistant, brain-heart infusion", "conditions": "24 h", "MIC": "256 µg/mL"}
{"SMILES": "CN[C@@H]1[C@H](O)[C@H](NC)[C@H]2O[C@]3(O)[C@H](O[C@@H]2[C@H]1O)O[C@H](C)C[C@]3(O)CNCc1ccc(OC(F)(F)F)cc1", "test system": "ATCC 33186", "MIC": "> 200 µg/mL"}
{"SMILES": "CN1C(=O)[C@@H]2NC(=O)[C@@H]3NC(=O)[C@@H](c4ccc(O)cc4)NC(=O)[C@H](NC(=O)C(NCc4cc(O)cc(O)c4)c4ccc(O)cc4)Cc4c[nH]c5cc(ccc45)-c4cc3cc(c4O)Oc3ccc(cc3)C[C@H]1C(=O)N[C@@H](C(=O)O)c1ccc(O)c(c1)Oc1ccc2cc1 (some centres unmarked)", "test system": "brain heart infusion medium", "MIC": "4 µg/mL"}
{"SMILES": "CCCCCCCCCCCC[S+]([O-])CC1OC(OC2C(N)CC(N)C(OC3OC(CN)C(O)CC3N)C2O)C(O)C(N)C1O (mixture of isomers)", "test system": "ATCC 29212", "MIC": "18.8 µg/mL"}
{"SMILES": "O=[N+]([O-])c1ccc2c(c1)C=[N+]1N3C(=[O+][Cu-2]1([Cl])[O]2)c1ccccc1NC3c1cc([N+](=O)[O-])ccc1O (centres unmarked)", "test": "broth microdilution", "test system": "vancomycin-resistant 368", "conditions": "24 h", "MIC": "256 µg/mL"}
{"SMILES": "Cc1ccc2nc(C(F)(F)F)c(C(=O)NCc3cccc(Cl)c3)n2c1", "test": "microbial growth, broth dilution", "MIC": "64 µM"}
{"SMILES": "CCCCCCCCCCCNC(C(=O)N[C@@H]1Cc2c[nH]c3cc(ccc23)-c2cc3cc(c2O)Oc2ccc(cc2)C[C@H]2C(=O)N[C@@H](C(=O)O)c4ccc(O)c(c4)Oc4ccc(cc4)[C@@H](NC(=O)[C@@H]3NC(=O)[C@@H](c3ccc(O)cc3)NC1=O)C(=O)N2C)c1ccc(O)cc1 (some centres unmarked)", "test system": "brain heart infusion medium", "MIC": "4 to 8 µg/mL"}
{"SMILES": "COc1ccc2nc(C)cc(OCC(=O)Nc3cc(C)cc(C)c3)c2c1", "test": "microbial growth, broth dilution", "MIC": "64 µM"}
{"SMILES": "CC1=CC2(C)C(=C(C)C3C4CC(C)CC(C)C4C4Oc5ccc(cc5)CC5(O)NC(=O)C(=C(O)C2C43)C5Nc2ncnc3c2ncn3C2OC(CO)C(O)C2O)C1C (centres unmarked)", "test": "microbial growth, broth dilution", "test system": "ATCC51299", "conditions": "drug-resistant strain", "MIC": "12.5 µM"}
{"SMILES": "CN1C(=O)[C@@H]2NC(=O)[C@@H]3NC(=O)[C@@H](c4ccc(O)cc4)NC(=O)[C@H](NC(=O)C(NCc4cc(Cl)cc(Cl)c4Cl)c4ccc(O)cc4)Cc4c[nH]c5cc(ccc45)-c4cc3cc(c4O)Oc3ccc(cc3)C[C@H]1C(=O)N[C@@H](C(=O)O)c1ccc(O)c(c1)Oc1ccc2cc1 (some centres unmarked)", "test system": "brain heart infusion medium", "MIC": "8 µg/mL"}
{"SMILES": "CC[C@H](C)[C@H](NC(=O)[C@H](NC(=O)[C@@H](CCC(N)=O)NC(=O)[C@@H](N)COC(=O)[C@@H](NC(=O)[C@@H](Cc1ccccc1)NC)[C@@H](C)CC)[C@@H](C)CC)C(=O)N[C@@H](CO)C(=O)N[C@H]1C(=O)N[C@@H](C)C(=O)N[C@@H](C2CCCCC2)C(=O)N[C@@H]([C@@H](C)CC)C(=O)O[C@H]1C", "test": "broth microdilution", "test system": "ATCC 51299, vancomycin-resistant, brain heart infusion broth", "conditions": "16 h, 37 °C", "MIC": "0.5 µg/mL"}
